Measurements of several laboratories.
Every numbered part comes from another study and shows a few of its results, in no order.

Block 1
Target: RING finger protein unkempt homolog, zinc fingers 1-6, GST-SBP tag (UNK, Homo sapiens, UniProt Q9C0B0, residues 30-357)
Technique: RNA Bind-n-Seq
Molecule type: RNA
Sample: in vitro
Tested at: not given
Setting: RNA with constant flanks, human and mouse sites, ends assumed
Relative to: input RNA pool
Direction: higher = stronger binding
Shared flanks, not repeated: GGGAGUUCUACAGUCCGACGAUC … CAACAGAGGAUUGAGCAUCA
Target sequence (chain): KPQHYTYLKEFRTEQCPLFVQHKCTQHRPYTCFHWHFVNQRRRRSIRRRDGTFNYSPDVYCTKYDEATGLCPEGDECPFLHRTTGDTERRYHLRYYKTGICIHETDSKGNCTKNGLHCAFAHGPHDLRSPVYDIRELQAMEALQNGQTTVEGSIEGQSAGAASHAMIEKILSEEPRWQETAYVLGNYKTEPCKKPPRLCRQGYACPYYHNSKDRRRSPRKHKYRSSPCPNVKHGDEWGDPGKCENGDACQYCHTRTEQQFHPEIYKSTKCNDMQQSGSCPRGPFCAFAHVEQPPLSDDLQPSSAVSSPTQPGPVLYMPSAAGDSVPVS
Oligonucleotide	bound/input enrichment [ratio]
AUGCUCUAACUGGACAUGAAGGAAAGGGGCGAGGGAGGGGGGUGGGAUUUUUGGUGCAAGUAGCACAUGGUUUAAAUAUGAAUGAACAAACCUGUGAUCUAGUCCUUGUCUUGUAAUUGU	0.313
GACCGGCCGGAGCGCCCUUGCAAGCCCCUCCUCACACUGGGCCUGGAUUAUACAGGCAUCUCGUGGAAGGAGAAGGUUGCAGACCUCCGGUUGAAAAUGGCAGAGAGGAGCAUCGCGUGG	0.213
AGUCCUCAACGUGUUCUAGCUUGUGAUCCUUCAAAGAUGGGUUAUGUGUUAAUGAUAGGUACUAGAAAUGUUUACUUCUCUCUUUCCACUGAUCAGAGAAACAGGCAUUAAAGACAGAAU	0.338
GGGCUCCAGGACUCUCAAGCUGGCAUCAUAUUAUUUGUUAUUUAAAAGACACAAUUAUUUUAGGUAGAUCUUUUUUUUUAAUGAGGUGGGGUAAGGCUGUGACUUUUGAUCUAAACAAAA	17.1
ACACACACACACACUCUCUGAGCACAUUAUCUGUGAUUCUUUCAUCCUCCCAGAAAGGAUCAGUGUUAGAAUGGGAAAUAGAGUGUGCCAUCUUGCUCUUUUGUUGGCAGAUGUCCCCGC	0.759
CUUUUUGGCCAUCUUUUAAAACUUUUUUUUUUUUUUUUGAUCUAUAAAAUAGACAAGAGAUAGUUCUACAAUGUCCAAGUCAUUCCAGCAGUCAUCUCUCGGUAGGGAUUCACAGGGUCA	1.32
CUUUAAAAGUUUAAUGAUACUUCUGAUGUUUCGGAACAGUCAUUUCACCUACUAUUUCUGAAUAUAUUUUGCAAAUUGAAUUGGAAUAGGAAUUGAUAAUAGCAGUCUUAAACAUUAGUA	2.85
CCAGUCCCUGAGCUCCCAGAUUUCUUCCAGGGCAAGCACUUCUUUCUUUACGGGGAGUUCCCUGGGGACGAGCGGCGGAAACUCAUCCGAUACGUCACAGCCUUCAAUGGGGAGCUCGAG	0.213
CUGGUAGAGAAGGUGCUUCCUGGGCACUUCAAUACCUUUGGUGCUGAAAGGCUUUUUCGAUUGGCUUCUAACUAUAUUUCAAAAGCUGGGAUAUGUCACAAAGUUUCUACUUUUGCCAUG	0.14
AGAUUGAUUUUCUUAGACUCCAUUAAGUCCAAAUCCAAAGACUCUGUGUGGGAAAAAGAAAUAGAAAUACUUAUAGAGGAAAAUGAGGACCUCAAACAACAAUGUAUUCAGCUAAAUGAA	0.482
CGCUUCGACGGGUAUGUCAUUGACGGUGCCACUGCUCUUUGGUGUGCUGCGGGAGCCGGACAUUUUGAAGUUGUUAAACUUCUAGUCAGCCAUGGAGCCAACGUGAACCACACCACAGUC	0.0796

Block 2
Target: PABPC1L2, full length, GST fusion (mouse, UniProt A0ABA7IW68)
Technique: RNAcompete
Molecule type: RNA
Sample: in vitro
Tested at: 20 nM
Setting: 7-mer, probes averaged, single round
Relative to: mean of 7-mers
Direction: higher = stronger binding
Target sequence (chain): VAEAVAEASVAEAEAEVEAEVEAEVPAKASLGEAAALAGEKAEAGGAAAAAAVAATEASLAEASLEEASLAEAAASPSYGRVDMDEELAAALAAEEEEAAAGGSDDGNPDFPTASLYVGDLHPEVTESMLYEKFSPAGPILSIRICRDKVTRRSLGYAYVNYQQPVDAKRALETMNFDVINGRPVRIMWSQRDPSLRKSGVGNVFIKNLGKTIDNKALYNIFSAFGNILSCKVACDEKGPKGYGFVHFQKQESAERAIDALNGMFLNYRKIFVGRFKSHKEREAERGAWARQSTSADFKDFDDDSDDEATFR
Oligonucleotide	7-mer Z-score
UAGGUGU	-0.266
AUAGUAU	-0.103
UAACGAU	-0.124
CUACUAG	-0.191
GCCACUU	-0.193
UGAGCAG	-0.18
UAUCUGU	-0.32
AGCGAUU	-0.0953
GCUUAAG	-0.242
UAUGAAU	-0.113
AUAAUUU	-0.0663
AGGAUAG	0.0152
CAUAUGA	0.0605
ACGGGAC	0.26
GUUGAUG	-0.155
ACGAGGG	0.151
CAAGUUG	-0.166
CCAUUAC	-0.302
AUAUCAC	-0.124

Block 3
Target: Histone acetyltransferase KAT6A, winged helix 2, GST fusion (KAT6A, Homo sapiens, UniProt Q92794, residues 85-181)
Technique: protein binding microarray
Molecule type: double-stranded DNA, one strand shown
Sample: in vitro
Tested at: not given
Setting: 8-mer, flanks averaged, mean of 2 arrays, mostly near background
Relative to: not given
Direction: higher = stronger binding
Residues (chain): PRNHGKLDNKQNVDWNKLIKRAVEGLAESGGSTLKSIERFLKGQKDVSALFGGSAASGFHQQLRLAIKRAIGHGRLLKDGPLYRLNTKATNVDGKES
Oligonucleotide	E-score
ACTGTCGG	-0.0309
AATGCTTG	-0.0471
GCTAACGA	-0.00217
AAGGAACC	0.168
ATAGGCTC	-0.0708
ACTGTTGA	-0.207
CCGTAGTA	-0.176
TAACGTGA	-0.25
CCAGCGCC	0.0274
CGGAAGAC	0.00392
CGAACTCG	0.133
CCTCCCTA	-0.0663
ACCTGCCT	0.0871
GCAATAGC	-0.0284
AGCATTGA	-0.0225
GTCTAGCA	0.0105
AATGGACA	0.16
CTCTTGGA	0.179
AATGCCCG	-0.069
CAAATCGA	-0.107
CCTCCTTA	-0.0129
GGTGTCAA	0.0896
ATAATATG	0.061
GAGGAAAC	0.00302
CATCTCAA	-0.184

Block 4
Target: Sal-like protein 4, full length isoform A (SALL4, Homo sapiens, UniProt Q9UJQ4, residues 1-1053)
Sequence of UniProt Q9UJQ4 (whole entry, looked up): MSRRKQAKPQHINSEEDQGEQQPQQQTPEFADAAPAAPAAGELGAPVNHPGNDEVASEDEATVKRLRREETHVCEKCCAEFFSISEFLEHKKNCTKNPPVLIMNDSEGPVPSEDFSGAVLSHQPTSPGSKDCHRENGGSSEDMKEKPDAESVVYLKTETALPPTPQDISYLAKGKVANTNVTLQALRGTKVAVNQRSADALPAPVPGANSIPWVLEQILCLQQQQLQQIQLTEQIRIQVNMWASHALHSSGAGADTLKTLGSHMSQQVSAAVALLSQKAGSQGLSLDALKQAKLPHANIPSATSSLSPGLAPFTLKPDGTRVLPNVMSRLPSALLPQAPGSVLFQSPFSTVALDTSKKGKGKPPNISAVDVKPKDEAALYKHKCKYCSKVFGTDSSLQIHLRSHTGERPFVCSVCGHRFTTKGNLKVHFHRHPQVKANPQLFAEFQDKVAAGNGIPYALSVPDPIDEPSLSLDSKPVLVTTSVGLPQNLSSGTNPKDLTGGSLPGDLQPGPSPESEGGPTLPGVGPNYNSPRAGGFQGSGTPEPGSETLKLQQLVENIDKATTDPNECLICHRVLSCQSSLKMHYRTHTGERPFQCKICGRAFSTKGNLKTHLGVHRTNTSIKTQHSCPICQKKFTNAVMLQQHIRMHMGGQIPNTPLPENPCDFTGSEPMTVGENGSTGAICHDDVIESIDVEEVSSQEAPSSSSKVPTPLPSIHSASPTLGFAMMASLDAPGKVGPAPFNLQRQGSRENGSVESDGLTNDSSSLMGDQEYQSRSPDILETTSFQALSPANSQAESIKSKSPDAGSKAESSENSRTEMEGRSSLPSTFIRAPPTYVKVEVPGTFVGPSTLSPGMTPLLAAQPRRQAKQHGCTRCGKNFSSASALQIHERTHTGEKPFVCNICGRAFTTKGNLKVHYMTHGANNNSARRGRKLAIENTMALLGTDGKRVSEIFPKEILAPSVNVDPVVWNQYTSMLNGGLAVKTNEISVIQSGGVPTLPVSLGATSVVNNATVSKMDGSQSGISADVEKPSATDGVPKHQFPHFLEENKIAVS
Technique: universal PBM
Molecule type: double-stranded DNA, one strand shown
Sample: in vitro
Tested at: 600 nM
Setting: 8-mer, flanks averaged, mean of replicates
Direction: higher = stronger binding
Oligonucleotide	E-score
GGCGTAGA	-0.0419
GGGGCCAC	-0.331
GGCTCGAC	-0.257
ACCTGTCC	-0.133
ACGGCTCA	-0.079
CCCCCGGG	-0.427
ATATTAAG	0.398
CAATAAGC	0.184
GCCTACGA	-0.0463
CAAAGGTA	0.0644
AGGGCTGG	-0.319
ATATTGTC	0.331
GGACTTCA	-0.0876
TTACAAAA	0.258
AGCTCCGA	-0.075
GGATCTTA	-0.08
AACATCGA	0.153
AATTGGTC	0.17
AAAGTTGC	0.0107

Block 5
Target: RNA binding protein fox-1 homolog 2, RRM domain, GST-SBP tag (RBFOX2, Homo sapiens, UniProt O43251-10, residues 100-194)
Technique: RNA Bind-n-Seq
Molecule type: RNA
Sample: in vitro
Tested at: 365 nM
Setting: natural RNA segment, single round, ends assumed
Relative to: no-protein control
Direction: higher = stronger binding
Shared flanks, not repeated: GGGAGUUCUACAGUCCGACGAUC … UGGAAUUCUCGGGUGCCAA
Residues (chain): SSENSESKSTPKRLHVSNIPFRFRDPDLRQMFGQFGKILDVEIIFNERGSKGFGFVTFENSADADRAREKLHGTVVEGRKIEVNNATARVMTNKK
Oligonucleotide	RBNS enrichment (R)
GCCCUCAUUGCUGCUUAUCGUACCCCCCAUCACCUGCACAUGGGACAGACCGGGCUGGAGGGUGACCUUGGCUGUGUGCGUCCCAGCAAAAGAGCUCUGGCCCGCAUCUC	1.21
CCAAAGAUGUCCUUAUUGACAAAGCUGGCCUUUGUCACCUGAUUCCAGUAUUCUCACUGUCUUCUAUUUCUAGUAGGGAGCUGGAGUCAAAUAACUUGUAUAGAUUUUGG	0.337
CCAAAUUGUGUAUAUAUCUUAUAACUGUUUUAGAAAUUGGUACAUAGGCUUCUAUUACCUAUUAGGUGGAAAUUUUAUAUGUAAAUGUGUUAGCACUGAUAGUCCUUUUU	0.607
CGUGGUUGGGGCCCUGCCCUGGCAGGGUCAUCCUGUGCUCGGAGGCCAUCUCGGGCACAGGCCCACCCCGCCCCACCCCUCCAGAACACGGCUCACGCUUACCUCAACCA	0.319
CCAACACGUCACCCGAGUAGAAGCUGGGCAAGGCCCUACCAUCCUGGCCGUCUGUUCACAAGCCCAAGGUGCUAGAACUAGCUUAGGAGACAUGCAGGCCACAGGGCUUC	0.454
CUAGCCCAUAGUCAGUCUGUGUUCUUCCACAGUUGUUUACGGUAGCCUUUUCCUAUCCACUUCCCUUACCAAGUGUAUCCAAGCGUGCACCCACCUCCUCAUUGGAUGGC	0.85
GAUGGUGAUGAUAAGAAAAGGCCAGUGAUUGUUCAUCGAGCCAUCUUGGGAUCAGUGGAAAGAAUGAUUGCUAUCCUCACAGAAAACUAUGGGGGCAAAUGGCCCUUUUG	1.65
UCAAUUUCAAAGCUCCAUUUCAUAAAGGGGCUACUUUGAAGGAGUUAAGAUGGAAGACUUCCUUCUUGACAAAUUGUGUUUUUAGUGAAUUUCUUAAACCGUUUUAUUUA	0.609
AAGAGAAGAGACACUAGCCAUAAAAUCUAGUUUCUAUUUAUCAACGUGUUGUGAAGAUGUACCUAAUGAAGUUUUGAGAAAGCACAGGGUUAUAGGUGUUUAAAUUUCCU	0.449
UAUUUUUGCAGGCAAUCUUUUCCAUGGAGGGCAGGGUAUCCAUUCUUUACCAUGGGUGUACCUGCUUAGGUUAAAAAUCAUACCAAGGCCUCAUACUUCCAGGUUUCAUG	0.329
UGAUGAUUUUGUAAUUCUUAUGACUAAAUUUUCUUUUAAGCAUUUGUAUAUUAAAAUAGCAUACUGUGUAUGUUUUAUAUCAAAUGCCUUCAUGAAUCUUUCAUACAUAU	0.57
GAUGUCCAGAACUGCAUUAGCCGCUGGGAGAGCCACCGAAGGCCCCAACAGGGGAUGCUCAUCACUGGAGACUGCGACUGGGAAGAACACUGCCCCCUCCCUCGGGUUGG	0.508

Block 6
Target: Phosphate system positive regulatory protein PHO4, full length, GST-tagged (PHO4, Saccharomyces cerevisiae, UniProt P07270, residues 1-312)
Technique: competition protein-binding microarray
Molecule type: double-stranded DNA, one strand shown
Sample: in vitro
Tested at: 2 µM
Setting: whole 60-bp probe, lowest competitor level
With: Cbf1 competitor, 0.05 µM
Direction: higher = stronger binding
Shared flanks, not repeated: … GTCTTGATTCGCTTGACGCTGCTG
Target sequence (chain): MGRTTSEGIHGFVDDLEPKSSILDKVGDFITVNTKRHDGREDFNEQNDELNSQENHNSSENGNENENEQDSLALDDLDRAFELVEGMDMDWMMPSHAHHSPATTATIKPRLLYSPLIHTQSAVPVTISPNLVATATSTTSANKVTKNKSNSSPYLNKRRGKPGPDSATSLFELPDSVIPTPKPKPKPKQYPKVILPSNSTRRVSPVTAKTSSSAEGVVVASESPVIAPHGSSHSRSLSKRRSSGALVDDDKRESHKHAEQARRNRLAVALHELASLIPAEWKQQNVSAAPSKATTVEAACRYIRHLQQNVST
Oligonucleotide	fluorescence intensity
CTAACGAAGGTTTGGAAAGTGGGTGACAAGCCAAGT	3480 a.u.
CGTCCTAGTGATTGTCACCTGACTTCCATGAGGAAG	4700 a.u.
CTTTCCCGATCTTGTGCTGTGGGTGTAGCACATTTG	6420 a.u.
AGTATCCTCGACCTACACGTCTTCACCATCGGCTTC	4960 a.u.
TTACTCAGGAGATTGCACGTTGAAGCAGTACGTTGA	10700 a.u.
CTTCTGTAAATTTGTGAAGTGGGTGGACGCGCCCCG	4440 a.u.
TCAAGAAGGCAGAGATACGTGTGGATTTTGCAGACA	4640 a.u.
AAAGCGGTAATTTGGAATGTGGGTGCAGATATCTAT	6600 a.u.
ATAGAGCTGTATTCTGAAGACCTCTTGTAGAACATC	2590 a.u.
GTCTTGTCTCATTGCTAGGTGGGTGTCCCCACTTCA	4280 a.u.
CAGACTACTAACCATCACGTGATGGTTCTTTTCACT	13300 a.u.
ACAAAATCGGCTTTTTACGTGACGGAAGAAGGTTAA	3710 a.u.
GAACAATATCCGAGTCACGTGAAATTTAGATAAGCA	11000 a.u.
CGTCCTAGTGATTGCCGCGTGGGTGCCATGAGGAAG	10800 a.u.
GCTCTTAAGTCCTCGGTCGTGATGGCGTCAGCCTGT	4890 a.u.
CAGGGTATAGACCGCTGAGGCAAGTGCCGTTAATGG	3310 a.u.
CATACCCAACCTTTTCACGTGGCCTAAGATATTTGT	14100 a.u.
CTTCTGTAAATTTGCGGTGTGGGTGGACGCGCCCCG	4590 a.u.
CTTTCCCGATCTTGTCACGTGTTTTTAGCACATTTG	13800 a.u.
GCGGAACGGCCCGCAATCGTGACTCGGCCAAAGGCG	3440 a.u.
CTTCTGTAAATTTGTCACCGAACTTGACGCGCCCCG	3040 a.u.
AGCTCTAACAAAGTCAACGTGTAAGGCAGCAACTGG	9400 a.u.
GCCGCCAGGGCCTGGCGCGTGGCCGCCGCTCCTCTT	7930 a.u.
CTAACGAAGGTTTGTCACGAGACTTACAAGCCAAGT	6470 a.u.
CTTCTGTAAATTTTTCACGTGTCATGACGCGCCCCG	12300 a.u.
